Values quoted from earlier work, collected from citations in different studies.
Each numbered part shows a few of the values that one paper quotes. Numbers after ± are the reported error.
Chain of UniProt P08684 (whole entry, looked up): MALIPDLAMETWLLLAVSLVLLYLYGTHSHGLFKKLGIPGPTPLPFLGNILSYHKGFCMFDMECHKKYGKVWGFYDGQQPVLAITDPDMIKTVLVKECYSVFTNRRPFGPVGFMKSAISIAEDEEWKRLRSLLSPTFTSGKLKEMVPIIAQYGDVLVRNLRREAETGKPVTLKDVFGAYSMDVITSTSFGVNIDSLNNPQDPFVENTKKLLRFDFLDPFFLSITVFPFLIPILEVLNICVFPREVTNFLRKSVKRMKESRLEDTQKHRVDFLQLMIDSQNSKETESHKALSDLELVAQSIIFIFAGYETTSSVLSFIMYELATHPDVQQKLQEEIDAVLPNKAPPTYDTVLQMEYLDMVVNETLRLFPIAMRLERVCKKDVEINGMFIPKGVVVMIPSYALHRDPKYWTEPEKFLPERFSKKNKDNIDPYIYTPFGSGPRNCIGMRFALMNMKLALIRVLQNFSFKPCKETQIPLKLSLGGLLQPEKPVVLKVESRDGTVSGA

Study 1
Target: HLA class I histocompatibility antigen, C alpha chain, allele C*04:01 (Homo sapiens, UniProt P10321)
Observed: peptide-MHC binding
Molecule type: peptide
For `KELGVHMSL`, the IC50 was > 5 µM.
The IC50 of `LMMNGTSAM` is reported as 2.09 µM.
With `MAWERGPAL` the IC50 was > 5 µM.
With `YTDKIAMSY` the IC50 was 20 µM.
For `RPAPARLPL`, the IC50 was > 5 µM.
For `ELFARSSDPR`, the IC50 was > 20 µM.
With `YYNAFHWAI` the IC50 was 20 µM.
`SYMMDDLELI` gave an IC50 of > 20 µM.
`SYSTPALTL` has an IC50 of 20 µM.
For `TEAEKWPFF`, the IC50 was 1.5 µM.
The IC50 of `RQSSGSSSSGF` is reported as > 20 µM.
The IC50 of `FARQNNGAF` is reported as > 5 µM.
The IC50 of `TSASFTDLY` is reported as > 5 µM.
`VALFSSCPVAY` gave an IC50 of > 20 µM.
The IC50 of `MTMSYLSTR` is reported as > 5 µM.
`YTPEQWWPF` has an IC50 of 20 µM.
`RRFNRTKPM` has an IC50 of > 5 µM.
For `YSLEYFQF`, the IC50 was > 20 µM.
For `MRYFIGQPL`, the IC50 was > 5 µM.
The IC50 of `YSLEYFQFVKK` is reported as > 20 µM.
With `HYMLKHLVW` the IC50 was > 5 µM.
`FPYTGDPPY` gave an IC50 of > 5 µM.
The IC50 of `WQLTSIWPI` is reported as > 5 µM.
The IC50 of `FYFNWNTPI` is reported as 0.664 µM.
`FLLPILSQIYT` gave an IC50 of > 20 µM.

Other studies, line by line
Oprm1: Mu-type opioid receptor (Oprm1, Rattus norvegicus, UniProt P33535)
Chain of UniProt P33535 (whole entry, looked up): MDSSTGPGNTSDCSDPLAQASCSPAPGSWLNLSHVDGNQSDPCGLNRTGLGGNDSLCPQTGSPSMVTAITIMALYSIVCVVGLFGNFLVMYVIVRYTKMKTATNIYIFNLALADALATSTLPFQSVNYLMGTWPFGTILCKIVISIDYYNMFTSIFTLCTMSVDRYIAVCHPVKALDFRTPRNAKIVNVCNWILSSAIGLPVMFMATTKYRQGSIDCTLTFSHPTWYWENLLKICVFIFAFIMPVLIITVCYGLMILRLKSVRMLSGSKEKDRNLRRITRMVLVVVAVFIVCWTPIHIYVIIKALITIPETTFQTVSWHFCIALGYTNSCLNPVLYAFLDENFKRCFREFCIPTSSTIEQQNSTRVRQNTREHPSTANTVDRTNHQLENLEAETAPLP
For COc1cccc2c1C(=O)c1c(O)c3c(c(O)c1C2=O)C[C@@](O)(C(=O)CO)C[C@@H]3O[C@H]1C[C@H](N)[C@H](O)[C@H](C)O1, the sensitivity ratio was ~2 fold (HCT-116 p53-/-; cell growth; relative to: p53-/- over wild type).
The renal clearance of O=C(O)C(F)(F)C(F)(F)C(F)(F)C(F)(F)C(F)(F)C(F)(F)C(F)(F)C(F)(F)C(F)(F)F is reported as 0.047 mL/day/kg (human, young female).
The Kp of CCCC(C(=O)c1ccc2c(c1)OCO2)N1CCCC1.Cl (racemic) is reported as ~4 (male Sprague-Dawley rat, brain over plasma; sc, 1 mg/kg).
Cn1ncnc1[C@H]1c2n[nH]c(=O)c3cc(F)cc(c23)N[C@@H]1c1ccc(F)cc1 — result for “highest non-severely toxic dose”: 0.05 mg/kg/day (rat; 28-day repeat dose).
The IC50 of CCCCCCCC[C@H]1O[C@H]1C/C=C/C=C/[C@H](O)CC(=O)NC1=C[C@](C)(CC)OC1=O is reported as 0.82 µM (Na(+)-translocating NADH-quinone reductase subunit B, whole Na+-NQR complex (nqrB, Vibrio cholerae serotype O1, UniProt Q9KPS2, G141A); enzyme activity, inhibitor; NqrB G141A mutant, isolated enzyme).
For CC1(C)CCC(CN2CCN(c3ccc(C(=O)NS(=O)(=O)c4ccc(NCC5CCOCC5)c([N+](=O)[O-])c4)c(Oc4cnc5[nH]ccc5c4)c3)CC2)=C(c2ccc(Cl)cc2)C1, “AUC at steady state” read 36900 ng·h/mL (human; 400 mg once daily).
For CCc1c2c(nc3ccc(OC(=O)N4CCC(N5CCCCC5)CC4)cc13)-c1cc3c(c(=O)n1C2)COC(=O)[C@]3(O)CC, the NOAEL was 0.24 mg/kg (refers to: offspring development; rat; organogenesis dosing).
The IC50 of O=C(CS)Nc1ccc(Cl)c(Cl)c1 is reported as > 100 µM (HepG2).
CC(=O)N1CC[C@@H](NC(=O)[C@@H](N)Cc2c(C)cc(O)cc2C)c2cc(Cc3ccccc3)ccc21 gave a stimulation of 76 ± 4.2% (Oprm1; agonist; concentration not given).
O=C(O)CC(=O)C(=O)O gave a Kd of 33 µM (citrate synthase H222Q mutant; binding, fluorescence titration; 20 °C).
For CNCCN1C(=O)[C@H](OC(C)=O)[C@H](c2ccc(OC)cc2)Sc2ccccc21, the kinact was 1.09 h⁻¹ (Cytochrome P450 3A4 (CYP3A4, Homo sapiens, UniProt P08684); enzyme activity, mechanism-based inhibitor).
CCc1c2c(nc3ccc(O)cc13)-c1cc3c(c(=O)n1C2)COC(=O)[C@]3(O)CC: CYP inhibition “no inhibition” (cytochrome P450 isoenzymes; concentration not given).
For CC(C)=CCc1cc2c(cc1O)O[C@H](c1ccc(O)cc1)CC2=O, the IC50 was 44.8 µM (neuraminidase; inhibitor).
CO/C1=C\C(C)=C\[C@@H](C)[C@@H](O)[C@@H](C)C/C(C)=C/C=C/[C@H](OC)[C@@H]([C@@H](C)[C@@H](O)[C@H](C)[C@@]2(O)C[C@@H](O)[C@H](C)[C@@H](C(C)C)O2)OC1=O has an IC50 of 0.1 µM (ATP6V1A; inhibitor).
CN(C(=O)n1cnc(-c2ccc[n+]([O-])c2)c1)C1CCCCC1 gave an NOAEL of 25 mg/kg/day (mice; 13 weeks repeated daily dosing).
The IC50 of C=C[C@@H]1C[C@]1(NC(=O)[C@@H]1C[C@@H]2CN1C(=O)[C@H](C(C)(C)C)NC(=O)O[C@@H]1C[C@H]1CCCCCc1nc3ccc(OC)cc3nc1O2)C(=O)NS(=O)(=O)C1CC1 is reported as > 100 µM (human CYP3A4; inhibitor; together with: testosterone substrate).
Oc1ccc2c3c1O[C@H]1c4[nH]c5ccccc5c4C[C@@]4(O)[C@@H](C2)N(CC2CC2)CC[C@]314 gave a Kd of 0.0003 µM (HEK293, recombinant; binding, radioligand binding).
With O=S(=O)(O)C(F)(F)C(F)(F)C(F)(F)C(F)(F)C(F)(F)C(F)(F)C(F)(F)C(F)(F)F the renal clearance was 0.038 mL/day/kg (human, young female).
With O=C(c1cc(Cc2n[nH]c(=O)c3ccccc23)ccc1F)N1CCN(C(=O)C2CC2)CC1 the NOAEL was 15 mg/kg/day (rat; oral, 4 weeks daily dosing).
The stimulation of CC(=O)N1CC[C@@H](NC(=O)[C@@H](N)Cc2c(C)cc(O)cc2C)c2cc(Cc3ccc4ccccc4c3)ccc21 is reported as 87 ± 2.5% (Oprm1; agonist; concentration not given).
The Ki of COC(=O)C1(c2ccc(C)cc2)CC1CN1CCC(O)(c2ccccc2)CC1 (centres unmarked) is reported as 0.0015 µM (sigma-1 receptor; binding, agonist).
CC(C(=O)O)c1ccc(-c2ccccc2)c(F)c1 (centres unmarked) gave a CL of 0.12 to 0.15 L/h (human).
COc1cc2c3c(n(CCCNCCO)c(=O)c2cc1OC)-c1cc2c(cc1C3=O)OCO2: “tumour-to-plasma concentration ratio” ≥ 100 (dog; mean, same time points).
For CN1CC[C@@]2(CCN3CCc4c(oc5ccccc45)[C@H]3C2)N(C)C1=O, the Kd was 0.0005 µM (NG108-15 neuroblastoma x glioma; binding, radioligand binding).
For COc1ccc2[nH]c([S+]([O-])Cc3ncc(C)c(OC)c3C)nc2c1 (centres unmarked), the CL was 1.3 to 2 L/h (human).

Some of these lines once more (study 1):
For `YSLEYFQF`, the IC50 was > 20 µM.
For `MRYFIGQPL`, the IC50 was > 5 µM.
The IC50 of `YSLEYFQFVKK` is reported as > 20 µM.
With `HYMLKHLVW` the IC50 was > 5 µM.
`FPYTGDPPY` gave an IC50 of > 5 µM.
The IC50 of `WQLTSIWPI` is reported as > 5 µM.
